Published values pooled from the literature.
Every numbered part comes from another study and shows a few of its results, in no order. Positions count from the first letter of the parent shown.

Sample 1
Target: ABI1, truncated, D143A, DHFR fusion (Arabidopsis thaliana)
Method: DHFR PCA, deep sequencing
Matrix: yeast
Notes: methotrexate growth selection, single substitutions
Together with: (+)-ABA 200 µM
Relative to: wild-type fitted maximum
Reading: higher = stronger binding
Parent: PYL1, truncated, DHFR fusion (Arabidopsis thaliana); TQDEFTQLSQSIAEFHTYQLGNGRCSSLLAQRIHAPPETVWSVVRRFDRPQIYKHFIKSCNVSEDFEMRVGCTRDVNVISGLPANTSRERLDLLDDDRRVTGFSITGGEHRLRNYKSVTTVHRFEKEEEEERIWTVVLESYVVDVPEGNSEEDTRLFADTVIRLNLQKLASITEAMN; partner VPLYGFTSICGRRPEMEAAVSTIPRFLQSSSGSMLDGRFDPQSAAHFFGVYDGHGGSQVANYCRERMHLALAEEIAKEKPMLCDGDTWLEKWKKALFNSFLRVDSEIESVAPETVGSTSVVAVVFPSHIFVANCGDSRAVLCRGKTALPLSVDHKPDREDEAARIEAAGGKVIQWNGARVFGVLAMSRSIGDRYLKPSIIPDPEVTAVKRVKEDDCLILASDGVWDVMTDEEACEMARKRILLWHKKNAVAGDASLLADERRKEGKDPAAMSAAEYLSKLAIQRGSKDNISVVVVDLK
For `V143R`, “relative binding score” read -4.22%.
Under “relative binding score”, `K126C` is recorded as 103%.
Under “relative binding score”, `M176V` is recorded as 97%.
`N165I` — result for “relative binding score”: -6.46%.
Under “relative binding score”, `E14H` is recorded as 99.5%.
`F5D`: “relative binding score” 83.7%.
For `D96Q`, “relative binding score” read 58.4%.
Under “relative binding score”, `G148L` is recorded as 72.5%.
For `S171C`, “relative binding score” read 94.3%.
For `K168T`, “relative binding score” read 101%.
For `H110I`, “relative binding score” read -1.37%.
Under “relative binding score”, `T135Y` is recorded as -0.432%.
Under “relative binding score”, `S59L` is recorded as 72.5%.
For `E4C`, “relative binding score” read 92.5%.
`R24S` — result for “relative binding score”: 95.2%.
For `Q51H`, “relative binding score” read 105%.

Sample 2
Target: CCND3, cyclin fold, Cln2 fusion (human)
Method: yeast growth competition, sequencing
Matrix: yeast
Notes: weak parent motif
Relative to: not given
Reading: higher = stronger binding
Parent: FZR1 docking peptide (human); QDYERRLLRQIVI
Under “normalised enrichment score”, `QDAERRLLRQIVI [Y3A]` is recorded as 0.112.
For `QDYERRLLRAIVI [Q10A]`, “normalised enrichment score” read 0.0963.
Under “normalised enrichment score”, `QDYERRLLRQIAI [V12A]` is recorded as 0.148.
Under “normalised enrichment score”, `QDYERRLFRQIVI [L8F]` is recorded as -0.0311.
`QDYERRALRQIVI [L7A]`: “normalised enrichment score” 0.139.
For `ADYERRLLRQIVI [Q1A]`, “normalised enrichment score” read 0.129.
`QDYEKRLFRQIVI [R5K L8F]` — result for “normalised enrichment score”: -0.105.
`QDYERRLLAQIVI [R9A]` — result for “normalised enrichment score”: 0.0366.

Sample 3
Target: Ras GTPase-activating protein-binding protein 1, RRM domain (G3BP1, Homo sapiens, UniProt Q13283)
Chain of UniProt Q13283 (whole entry, looked up): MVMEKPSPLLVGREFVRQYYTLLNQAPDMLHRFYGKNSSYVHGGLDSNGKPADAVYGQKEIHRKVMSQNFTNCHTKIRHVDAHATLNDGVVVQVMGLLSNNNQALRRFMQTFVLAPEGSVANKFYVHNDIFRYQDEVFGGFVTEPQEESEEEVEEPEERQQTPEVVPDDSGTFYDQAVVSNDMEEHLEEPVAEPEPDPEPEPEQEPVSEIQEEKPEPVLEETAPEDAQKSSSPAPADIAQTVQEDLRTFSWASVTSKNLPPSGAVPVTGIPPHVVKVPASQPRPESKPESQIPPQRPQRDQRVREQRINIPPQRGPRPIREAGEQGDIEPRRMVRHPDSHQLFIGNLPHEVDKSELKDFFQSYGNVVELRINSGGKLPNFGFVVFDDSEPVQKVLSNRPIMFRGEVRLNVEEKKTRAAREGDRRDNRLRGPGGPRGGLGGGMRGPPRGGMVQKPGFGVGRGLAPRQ
Method: RNA Bind-n-Seq
Form: RNA
Matrix: in vitro
Tested at: 1 µM
Notes: whole 134-nt RNA, ends assumed
Together with: 150 mM KCl
Relative to: input library
Reading: higher = stronger binding
`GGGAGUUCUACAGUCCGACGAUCUGGAAGCUCAUACGACUGUGAAAGAAGCUGAGGAUGACAACAUCUCGGUCACAAUCCAGGCUGAAGAUGCCAUCACUCUGGAUUUUGAUGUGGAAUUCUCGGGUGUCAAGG` has a log2 enrichment of -0.303.
For `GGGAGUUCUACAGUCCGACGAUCAGUCCUGUGCUACACAUCGUAUGUACCGAAUCGGGGUUUUUGGGGUUUGGGGUGGGGAAAGUAUUAUGUUACGCCGUUCGGAUCUGCACUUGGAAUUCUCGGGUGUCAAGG`, the log2 enrichment was 1.18.
For `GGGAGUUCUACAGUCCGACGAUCGCAGGAAGUAAAAACAAAUGGAAAUGCUUCGGAUAGUGGCAGGGGUGGGGGUUGCUAAGGAAAGGGUAAAAUGGGAGUGGGUAAAGAGUUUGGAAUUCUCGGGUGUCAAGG`, the log2 enrichment was 1.27.
`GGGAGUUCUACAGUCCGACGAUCACCAUGCAGGUGGGCAUCUUUGGGAAGUGGGGCAAGGGGGGGAUAUGGAGGGGGGUAACACUUUGGGAACAGGUGGUCCCAGGUCGUUUCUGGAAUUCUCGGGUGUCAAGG` gave a log2 enrichment of 0.821.
The log2 enrichment of `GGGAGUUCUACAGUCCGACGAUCCAAGUCCUGUGCUACACAUCGUAUGUACCGAAUCGUGUGUGUGUGUGUGUGUGUGAAAGUAUUAUGUUACGCCGUUCGGAUCUGCACUUCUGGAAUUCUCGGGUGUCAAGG` is reported as 0.0431.
With `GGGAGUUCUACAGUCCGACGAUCUCCUGUGCUACACAUCGUAUGUACCGAAUCAAAUUUUUUUAAAUUUUUUUAAACCCAAAAAAGUAUUAUGUUACGCCGUUCGGAUCUGCAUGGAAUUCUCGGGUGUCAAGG` the log2 enrichment was -1.22.
The log2 enrichment of `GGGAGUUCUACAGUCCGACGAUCAAGUCCUGUGCUACACAUCGUAUGUACCGAAUCGGAAAAGGGAAAAGGGAAAAGGGGAAAGUAUUAUGUUACGCCGUUCGGAUCUGCACUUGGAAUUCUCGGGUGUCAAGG` is reported as 0.0402.
With `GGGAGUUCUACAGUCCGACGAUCCACAGACAACACGCACCCACACAGACACAGAGGGAAGGGGUUGGGAUGGGGACAGGGUGCACAGCAGGGCGGGGUAGGACCCCAGCCAAAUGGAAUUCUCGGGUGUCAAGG` the log2 enrichment was -0.126.
The log2 enrichment of `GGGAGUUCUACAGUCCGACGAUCCCUCAAGUCCUGUGCUACACAUCGUAUGUACCGAAUCGGUUGGUUGGUUGGGGAAAGUAUUAUGUUACGCCGUUCGGAUCUGCACUUCCAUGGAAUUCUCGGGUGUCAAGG` is reported as -0.215.
With `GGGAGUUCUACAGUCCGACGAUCAGAGAAAAGGAACAGUUCCGUAAGCUCUUUAUUGGUGGCUUAAGCUUUGAAACCACAGAAGAAAGUUUGAGGAACUACUACGAACAAUGGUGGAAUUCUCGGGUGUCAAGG` the log2 enrichment was -0.246.

Sample 4
Target: RNA binding protein fox-1 homolog 2, RRM domain, GST-SBP tag (RBFOX2, Homo sapiens, UniProt O43251-10, residues 100-194)
Method: RNA Bind-n-Seq
Form: RNA
Matrix: in vitro
Tested at: 365 nM
Notes: natural RNA segment, single round, ends assumed
Relative to: no-protein control
Reading: higher = stronger binding
Construct (chain): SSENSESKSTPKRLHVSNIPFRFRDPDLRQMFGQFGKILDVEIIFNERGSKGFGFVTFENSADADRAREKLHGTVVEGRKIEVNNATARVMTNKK
`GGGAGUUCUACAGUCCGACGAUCGUUGAACUCUCUUCUGUACCUCUGUGCUCUGUGUCUGUGCAUGAAGGCUCAGUCUUUAGAGGCACUCCCUCUAGUUGAUUAGCACUGUCUUCUGUGGAGUUUGGUUCAAAUGGAAUUCUCGGGUGCCAA` — result for “RBNS enrichment (R)”: 16.3.
Under “RBNS enrichment (R)”, `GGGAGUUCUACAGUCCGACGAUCGAACCAGGAAAGGAAAUCCUCGCUUCCAUGGCUGCCAAAAGGACAGUGUUUCUGGCUCUCAGCCCUAAGGCCCUGCAAACUCUAACUUAUUUCCCAAUUAGUCUGUAUCUUGGAAUUCUCGGGUGCCAA` is recorded as 0.508.
`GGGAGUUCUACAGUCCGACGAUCUGUUUCUAAACUGCUGCUUUGUCUAUUUCCUGCAUUUUAUAGUGAAACUACUAAACAUAAAUAGAUUUUCACUACCACAAAGAAUGAGAAUUAAUGACACUGAAGGAAUGUGGAAUUCUCGGGUGCCAA`: “RBNS enrichment (R)” 0.379.
For `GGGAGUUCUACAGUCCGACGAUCUCCCUCCUGUCCCCUCACUGUCCACUUUCUGUUCUUUCCUUGGGUUUCCUGUGAAGUUGGAGGGACGUUUGUAGUCAUGUGACACUAGCCGUCCUGCCCCUGCUGUCAGAUGGAAUUCUCGGGUGCCAA`, “RBNS enrichment (R)” read 1.19.
`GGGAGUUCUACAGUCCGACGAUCGGGUUGGUUGCAGUUGAGUUGUUGUCUGGCCGUCUGUAUUUGGAUCUUUAACUGUACUUUGCCUGGCGCUGUGCGCAAGGUCUGAAACCUUAUUGCUAGUACCUAGAAACUGGAAUUCUCGGGUGCCAA` — result for “RBNS enrichment (R)”: 0.876.
`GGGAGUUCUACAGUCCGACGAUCUGAGUCUGUCCAGAGUGCUUGCUACCGUGUUCGGAGUCUCGCUGCCUCCCUCCCGCGGGAGGUUUCUCCUCUUUUUGAAAAUUCCGUCUGUGGGAUUUUUAGACAUUUUUUGGAAUUCUCGGGUGCCAA`: “RBNS enrichment (R)” 0.679.
`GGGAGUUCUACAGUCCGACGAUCGAGACACGAGAAGGAUAGCCUGACAUCAGAUGACAGACUGGAGGACUGUAGCACAUCUCUGGGCGUUUCCCUACCCAGAGAAGAGCCCCCCCCUUUGAUACAAAUCGGUUUGGAAUUCUCGGGUGCCAA` — result for “RBNS enrichment (R)”: 0.356.
For `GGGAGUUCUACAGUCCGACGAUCGAUCUCAGGCAGCGCUGUUUCCUGUGAAGAAAAAAAAAGUGUAUAUAUCCAUAGAUAUAGUACUUUGUCUUGUCAGGAGGUGGAAACCGAAAUAAAUUAUCUUUUAAAAAUGGAAUUCUCGGGUGCCAA`, “RBNS enrichment (R)” read 0.217.
`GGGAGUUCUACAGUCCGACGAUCCUACUCUACAGUGACUACCUGUGGGCCAGGCCAUCUAAACUGAGAGGGGGAAAGAUUCUACUUCAAAUCUUUAACAACAAGAGUGAUUCUGUUCAGCUGGGGUAGAGUGAUGGAAUUCUCGGGUGCCAA` — result for “RBNS enrichment (R)”: 0.532.
For `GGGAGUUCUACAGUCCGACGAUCGGCACUUCCCAGCCUGCUUUUGGGAAGGCUCCUAUGGCCCCUGUGGGCACAAUGAAAAUGUUUACACUGAUGCAUGGCAGGGUUCAGCCUGAAUGCUUCUAGCAAAGGUGUGGAAUUCUCGGGUGCCAA`, “RBNS enrichment (R)” read 21.2.
Under “RBNS enrichment (R)”, `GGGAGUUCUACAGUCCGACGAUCACUCAUUCCUCCAAGCCCUUGCGCUCCCGUUUCUCUCUCUCUCCGUCCACGUUCCAGCCGAGUCACUGCCUGACCGGCUCCAUGGCAGCUCCCCAUCUUCCCUAGAGGCUUGGAAUUCUCGGGUGCCAA` is recorded as 0.869.
For `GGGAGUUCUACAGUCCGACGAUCAGCUCAGGGCAAUGGCAGACCAGAUUGUGGGUCUCCAGCCUUGCAUGGCUGGCAGCCAGAUCCUGGGGCAACCCAUCUGGUCUCUUGAAUAAAGGUCAAAGCUGGAUUCUUGGAAUUCUCGGGUGCCAA`, “RBNS enrichment (R)” read 0.417.
